Results gathered from unrelated publications.
Each numbered part is a random draw from the data of one study; scales do not carry over between parts.
UniProt Q04759, sequence (whole entry, looked up): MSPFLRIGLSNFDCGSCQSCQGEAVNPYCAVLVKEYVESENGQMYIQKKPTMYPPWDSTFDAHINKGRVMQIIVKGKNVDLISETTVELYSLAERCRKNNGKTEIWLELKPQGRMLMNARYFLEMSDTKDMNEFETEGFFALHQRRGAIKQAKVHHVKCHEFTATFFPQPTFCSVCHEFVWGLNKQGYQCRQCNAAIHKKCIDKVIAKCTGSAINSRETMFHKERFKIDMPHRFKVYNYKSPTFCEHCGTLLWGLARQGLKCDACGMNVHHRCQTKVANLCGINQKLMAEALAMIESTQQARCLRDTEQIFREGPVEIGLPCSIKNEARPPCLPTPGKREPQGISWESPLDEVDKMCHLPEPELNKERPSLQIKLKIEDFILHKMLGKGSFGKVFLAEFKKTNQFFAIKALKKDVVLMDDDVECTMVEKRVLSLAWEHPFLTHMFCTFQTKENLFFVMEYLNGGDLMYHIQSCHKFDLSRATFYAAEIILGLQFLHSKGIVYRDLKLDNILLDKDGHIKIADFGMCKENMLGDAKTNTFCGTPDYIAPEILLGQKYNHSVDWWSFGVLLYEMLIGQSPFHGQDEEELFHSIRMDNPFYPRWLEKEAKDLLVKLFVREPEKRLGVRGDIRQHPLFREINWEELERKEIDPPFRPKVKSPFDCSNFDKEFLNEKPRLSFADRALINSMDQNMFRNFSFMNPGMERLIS
UniProt O60285, sequence (whole entry, looked up): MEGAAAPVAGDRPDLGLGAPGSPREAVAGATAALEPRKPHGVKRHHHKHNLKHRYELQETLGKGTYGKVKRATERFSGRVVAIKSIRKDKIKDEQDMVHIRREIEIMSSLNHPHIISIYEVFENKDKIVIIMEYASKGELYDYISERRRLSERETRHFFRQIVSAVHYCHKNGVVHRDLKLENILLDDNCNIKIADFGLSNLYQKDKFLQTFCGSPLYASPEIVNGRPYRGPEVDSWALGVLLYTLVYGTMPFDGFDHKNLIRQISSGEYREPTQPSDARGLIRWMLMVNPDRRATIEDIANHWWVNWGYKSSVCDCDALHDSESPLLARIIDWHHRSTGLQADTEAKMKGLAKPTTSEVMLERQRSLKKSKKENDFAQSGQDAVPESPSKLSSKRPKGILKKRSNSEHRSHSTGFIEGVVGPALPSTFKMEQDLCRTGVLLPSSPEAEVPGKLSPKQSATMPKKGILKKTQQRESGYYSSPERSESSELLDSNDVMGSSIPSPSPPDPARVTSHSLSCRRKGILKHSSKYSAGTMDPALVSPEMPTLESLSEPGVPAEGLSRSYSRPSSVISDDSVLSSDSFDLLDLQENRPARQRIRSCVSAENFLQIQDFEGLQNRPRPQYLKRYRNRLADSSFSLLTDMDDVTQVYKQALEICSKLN
UniProt O75385, sequence (whole entry, looked up): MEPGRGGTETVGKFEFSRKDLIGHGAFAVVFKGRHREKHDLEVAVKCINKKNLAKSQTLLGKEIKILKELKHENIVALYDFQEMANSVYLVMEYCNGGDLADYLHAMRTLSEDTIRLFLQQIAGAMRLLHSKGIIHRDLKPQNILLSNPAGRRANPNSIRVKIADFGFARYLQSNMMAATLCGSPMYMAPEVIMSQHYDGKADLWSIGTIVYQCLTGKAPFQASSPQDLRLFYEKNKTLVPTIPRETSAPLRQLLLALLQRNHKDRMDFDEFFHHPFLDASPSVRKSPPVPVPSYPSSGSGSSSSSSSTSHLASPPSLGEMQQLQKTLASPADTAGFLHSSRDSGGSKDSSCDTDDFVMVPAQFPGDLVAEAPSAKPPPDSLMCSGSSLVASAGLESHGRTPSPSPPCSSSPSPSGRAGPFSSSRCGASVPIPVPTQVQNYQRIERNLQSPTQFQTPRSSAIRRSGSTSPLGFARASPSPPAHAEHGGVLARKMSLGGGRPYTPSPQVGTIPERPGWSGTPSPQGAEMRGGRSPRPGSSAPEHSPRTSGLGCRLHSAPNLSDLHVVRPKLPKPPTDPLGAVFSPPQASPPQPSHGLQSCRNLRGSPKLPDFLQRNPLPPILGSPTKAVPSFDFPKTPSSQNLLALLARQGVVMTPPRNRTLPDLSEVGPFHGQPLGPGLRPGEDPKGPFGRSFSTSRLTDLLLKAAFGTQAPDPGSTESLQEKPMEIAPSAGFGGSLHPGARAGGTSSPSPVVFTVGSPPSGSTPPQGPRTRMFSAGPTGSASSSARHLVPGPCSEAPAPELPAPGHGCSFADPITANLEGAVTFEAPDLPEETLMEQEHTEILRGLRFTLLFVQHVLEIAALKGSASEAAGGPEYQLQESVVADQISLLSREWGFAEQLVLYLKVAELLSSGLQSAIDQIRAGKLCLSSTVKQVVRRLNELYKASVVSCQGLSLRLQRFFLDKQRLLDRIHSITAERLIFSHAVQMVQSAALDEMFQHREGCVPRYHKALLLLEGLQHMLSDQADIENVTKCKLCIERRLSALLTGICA
UniProt P43403, sequence (whole entry, looked up): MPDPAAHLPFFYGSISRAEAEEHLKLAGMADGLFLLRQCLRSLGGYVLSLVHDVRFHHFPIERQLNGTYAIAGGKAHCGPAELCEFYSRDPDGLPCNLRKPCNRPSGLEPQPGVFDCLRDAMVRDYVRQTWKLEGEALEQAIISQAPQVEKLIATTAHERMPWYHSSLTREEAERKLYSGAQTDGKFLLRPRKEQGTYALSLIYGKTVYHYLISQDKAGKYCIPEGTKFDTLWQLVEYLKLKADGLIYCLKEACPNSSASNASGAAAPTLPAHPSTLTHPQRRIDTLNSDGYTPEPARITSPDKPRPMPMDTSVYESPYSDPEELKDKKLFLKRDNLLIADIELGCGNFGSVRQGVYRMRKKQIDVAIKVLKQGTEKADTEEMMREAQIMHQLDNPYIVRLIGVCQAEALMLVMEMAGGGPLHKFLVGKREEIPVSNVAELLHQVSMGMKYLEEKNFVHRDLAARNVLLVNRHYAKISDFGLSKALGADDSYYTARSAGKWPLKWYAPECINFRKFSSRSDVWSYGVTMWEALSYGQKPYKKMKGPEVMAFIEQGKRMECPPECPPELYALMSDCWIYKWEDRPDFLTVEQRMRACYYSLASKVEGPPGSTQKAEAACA
UniProt Q9UEE5, sequence (whole entry, looked up): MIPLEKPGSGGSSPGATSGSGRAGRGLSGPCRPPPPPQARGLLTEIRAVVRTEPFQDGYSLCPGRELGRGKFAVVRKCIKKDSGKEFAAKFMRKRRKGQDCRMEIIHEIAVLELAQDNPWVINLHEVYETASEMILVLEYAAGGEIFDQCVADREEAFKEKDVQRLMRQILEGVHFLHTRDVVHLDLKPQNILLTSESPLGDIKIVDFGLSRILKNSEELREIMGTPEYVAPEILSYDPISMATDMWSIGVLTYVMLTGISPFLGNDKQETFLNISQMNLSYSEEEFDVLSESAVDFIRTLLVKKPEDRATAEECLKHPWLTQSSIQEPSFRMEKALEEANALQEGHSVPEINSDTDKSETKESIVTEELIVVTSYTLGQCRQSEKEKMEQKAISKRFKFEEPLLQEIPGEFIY

Study 1 — read-out: enzyme activity; action: inhibitor; concentration: 0.5 µM; relative to: control
Target: Phosphorylase b kinase gamma catalytic chain, liver/testis isoform (PHKG2, Homo sapiens, UniProt P15735)
UniProt P15735, sequence (whole entry, looked up): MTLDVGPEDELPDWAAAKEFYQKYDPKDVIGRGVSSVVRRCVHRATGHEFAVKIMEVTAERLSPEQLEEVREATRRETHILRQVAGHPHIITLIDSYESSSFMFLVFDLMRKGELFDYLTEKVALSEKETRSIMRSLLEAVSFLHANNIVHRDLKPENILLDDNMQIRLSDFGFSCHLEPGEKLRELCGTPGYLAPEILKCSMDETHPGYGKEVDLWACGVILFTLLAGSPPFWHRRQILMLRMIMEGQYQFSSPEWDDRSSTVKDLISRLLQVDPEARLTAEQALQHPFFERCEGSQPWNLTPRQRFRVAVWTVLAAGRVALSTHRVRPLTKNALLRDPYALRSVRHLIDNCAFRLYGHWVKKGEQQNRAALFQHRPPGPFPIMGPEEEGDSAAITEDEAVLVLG
SMILES | remaining activity [%]
CCCC(=O)Oc1ccc2[nH]c(C(=O)c3cc4ccccc4[nH]3)cc2c1 | 117
N#CC(=C(N)Sc1ccc(N)cc1)c1ccccc1C(F)(F)F | 96
Cc1ccc(NC2=CC(=O)c3sc(C)nc3C2=O)cc1 | 96.3
CCc1[nH]c(-c2ccc(OC)cc2)nc1-c1ccncc1 | 111
CC(=O)c1ccc(N2CCOCC2)cc1O | 98.1
Cc1cncc2cccc(S(=O)(=O)N3CCCN(C(=O)CN)C[C@@H]3C)c12 | 90.5
Oc1ccc(Nc2nc(-c3ccc(Cl)cc3)cs2)cc1 | 99.9
Fc1ccc(-c2nc3n(c2-c2ccncc2)CCS3)cc1 | 104
Nc1nccc(-c2c(-c3ccc(F)cc3)ncn2C2CCNCC2)n1 | 104
O=C1NC(=O)C(c2c[nH]c3ccccc23)=C1c1c[nH]c2ccccc12 | 107
NC(=O)c1ccc(N(C(N)=O)c2c(F)cccc2F)nc1-c1ccc(F)cc1F | 93.1
CC[n+]1c(/C=C/N(C)c2ccccc2)n(-c2ccccc2)c2ccc(-c3nc4ccccc4s3)cc21 | 102
CC(C)(C)n1nc(Cc2cccc3ccccc23)c2c(N)ncnc21 | 95.8
O=C1Cc2c([nH]c3ccc([N+](=O)[O-])cc23)-c2ccccc2N1 | 101
Cc1cc(Nc2nc(-c3ccccc3)nc3ccccc23)n[nH]1 | 86.3
Nc1ncnc2c1cnn2-c1ccccc1 | 94.1
CSc1nc(-c2ccnc(N[C@@H](C)c3ccccc3)c2)c(-c2ccc(F)cc2)[nH]1 (racemic) | 125
COc1ccc(S(=O)(=O)N(CCO)c2ccccc2CN(C)CC=Cc2ccc(Cl)cc2)cc1 | 103
CC#CC(=O)Nc1cc2c(Nc3ccc(F)c(Cl)c3)ncnc2cn1 | 99
O=S(=O)(NCCNC/C=C/c1ccc(Br)cc1)c1cccc2cnccc12 | 88.8
COc1cc(Nc2c(C#N)cnc3cc(OCCCN4CCN(C)CC4)c(OC)cc23)c(Cl)cc1Cl | 103

Study 2 — read-out: RNA clamping; method: fluorescence polarization; concentration: concentration not given; setting: mean of two replicates; together with: FAM-labelled poly r(AG)8 RNA
Target: Eukaryotic initiation factor 4A-I (EIF4A1, Homo sapiens, UniProt P60842)
UniProt P60842, sequence (whole entry, looked up): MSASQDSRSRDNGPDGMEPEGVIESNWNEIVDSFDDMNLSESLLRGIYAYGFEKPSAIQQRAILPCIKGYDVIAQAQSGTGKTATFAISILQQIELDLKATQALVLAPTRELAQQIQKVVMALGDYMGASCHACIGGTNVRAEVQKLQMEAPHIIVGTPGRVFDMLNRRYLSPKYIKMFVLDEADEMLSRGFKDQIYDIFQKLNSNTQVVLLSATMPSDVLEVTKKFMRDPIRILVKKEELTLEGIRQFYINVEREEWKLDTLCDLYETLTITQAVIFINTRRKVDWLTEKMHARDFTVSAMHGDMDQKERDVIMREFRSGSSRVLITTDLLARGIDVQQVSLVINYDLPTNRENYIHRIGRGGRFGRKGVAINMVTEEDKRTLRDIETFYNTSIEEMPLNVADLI
Compound | fluorescence polarization change [mP]
O[C@@H]1C2(O)c3ccccc3O[C@]1(c1ccccc1)[C@@H](/C=C/c1ccccc1)[C@@H]2c1ccccc1 | 6.8
COC(=O)[C@@H]1[C@@H](c2ccccc2)[C@]2(c3ccc(OC)cc3)Oc3cc(OC)cc(OC)c3[C@@]23NC(c2ccc(OC)cc2)=N[C@@]13O | 39
COc1ccc([C@@]23Oc4cc(OC)cc(OC)c4[C@]2(O)c2nc(C4CCCCC4)[nH]c(=O)c2[C@H]3c2ccccc2)cc1 | 42.2
COc1ccc([C@@]23Oc4cc(OC)cc(OC)c4[C@]2(O)[C@H](O)[C@H](CN(C)C)[C@H]3c2ccccc2)cc1 | 70.7
COc1ccc([C@]23[C@H](c4ccccc4)C[C@@H](O)[C@@]2(O)c2c(F)cccc2N3C)cc1 | 3.7
COC(=O)[C@H]1C(=O)[C@@]2(NCC3CCNCC3)c3c(OC)cc(OC)cc3O[C@@]2(c2ccc(OC)cc2)[C@@H]1c1ccccc1 | -2.2
CCOC(=O)COc1nc(-c2ccccc2)nc2c1[C@@H](c1ccccc1)[C@]1(c3ccc(OC)cc3)Oc3cc(OC)cc(OC)c3[C@]21OCC(=O)OCC | 5
O=C1C[C@@H](c2ccccc2)[C@]2(c3ccc(Br)cc3)Oc3cc(F)cc(F)c3[C@]12O | 9.5
COc1ccc([C@@]23Oc4cc(OS(=O)(=O)c5ccc(C)cc5)cc(OC)c4[C@]2(O)c2nc(-c4ccccc4)n(Cc4ccccc4)c(=O)c2[C@H]3c2ccccc2)cc1 | -4.2
COC(=O)[C@H]1C(=O)[C@@]2(NCc3ccccc3)c3c(OC)cc(OC)cc3O[C@@]2(c2ccc(OC)cc2)[C@@H]1c1ccccc1 | 1.9
COC(=O)[C@@H]1[C@@H](c2ccccc2)[C@]2(c3ccc(OC)cc3)Oc3cc(OC)cc(OC)c3[C@@]23OC(c2ccc(OCc4ccccc4)cc2)=N[C@@]13O | 3.1
COC(=O)CCCn1c(-c2ccccc2)nc2c(c1=O)[C@H](c1ccccc1)[C@]1(c3ccc(OC)cc3)Oc3cc(OC)cc(OC)c3[C@]21O | 12.9
COC(=O)[C@@H]1[C@@H](c2ccccc2)[C@]2(c3ccc(OC)cc3)Oc3cc(OC)cc(OC)c3[C@@]23OC(c2ccccc2Cl)=N[C@@]13O | -8.2
COC(=O)[C@@H]1[C@@H](c2ccccc2)[C@]2(c3ccc(OC)cc3)Oc3cc(OC)cc(OC)c3[C@@]23NC(C(F)(F)F)=N[C@@]13O | 27.2

Study 3 — read-out: enzyme activity; action: inhibitor; concentration: 10 µM
Target: Calcium/calmodulin-dependent protein kinase type II subunit alpha (CAMK2A, Homo sapiens, UniProt Q9UQM7)
UniProt Q9UQM7, sequence (whole entry, looked up): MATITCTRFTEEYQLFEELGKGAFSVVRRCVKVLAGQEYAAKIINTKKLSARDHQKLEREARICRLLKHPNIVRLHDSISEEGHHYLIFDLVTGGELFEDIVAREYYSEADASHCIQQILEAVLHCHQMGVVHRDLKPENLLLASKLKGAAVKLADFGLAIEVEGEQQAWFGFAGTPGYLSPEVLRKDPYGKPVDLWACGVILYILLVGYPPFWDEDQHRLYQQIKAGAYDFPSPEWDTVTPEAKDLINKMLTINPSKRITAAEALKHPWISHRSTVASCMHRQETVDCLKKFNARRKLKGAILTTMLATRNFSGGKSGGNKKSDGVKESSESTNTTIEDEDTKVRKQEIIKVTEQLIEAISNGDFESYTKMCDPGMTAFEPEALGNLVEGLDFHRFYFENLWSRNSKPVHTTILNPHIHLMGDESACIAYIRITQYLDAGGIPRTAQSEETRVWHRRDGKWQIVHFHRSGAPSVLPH
SMILES | inhibition [%]
Nc1ccccc1C(=O)C[C@@H](N)C(=O)O | 5
CC(C)(Oc1ccc(CCNC(=O)c2ccc(Cl)cc2)cc1)C(=O)O | 3
NS(=O)(=O)c1cc(C2(O)NC(=O)c3ccccc32)ccc1Cl (stereo not drawn) | 1
COc1cc2nc(N3CCN(C(=O)C4CCCO4)CC3)nc(N)c2cc1OC (stereo not drawn) | -15
CCOc1cc([C@@H](CS(C)(=O)=O)N2C(=O)c3cccc(NC(C)=O)c3C2=O)ccc1OC | 8
CC/C=C\C/C=C\C/C=C\C/C=C\C/C=C\CCCC(=O)OCC | -15
COc1ccc(-c2oc3c(CC=C(C)C)c(O[C@@H]4C[C@H](CO)[C@@H](O)[C@H](O)[C@H]4O)cc(O)c3c(=O)c2O[C@@H]2O[C@@H](C)[C@H](O)[C@@H](O)[C@H]2O[C@@H]2O[C@H](CO)[C@@H](O)[C@H](O)[C@H]2O)cc1 | 21
CCCC(=O)Nc1ncnc2c1ncn2[C@@H]1O[C@@H]2COP(=O)(O)O[C@H]2[C@H]1OC(=O)CCC | -3
O=c1cc(-c2ccc(O)cc2)oc2cc(O)c(O)c(O)c12 | -22
C[C@]12C[C@H](O)[C@H]3[C@@H](CCC4=CC(=O)CC[C@@]43C)[C@@H]1CC[C@@H]2C(=O)CO | 11
Cc1ccccc1-c1cc(N2CCN(C)CC2)ncc1N(C)C(=O)C(C)(C)c1cc(C(F)(F)F)cc(C(F)(F)F)c1 | -2
Cc1ncc([N+](=O)[O-])n1C[C@H](O)CN1CCOCC1 | 9
C/C=C(\C)C(=O)O[C@H]1[C@H](OC(C)=O)[C@]2(CO)[C@H](O)C[C@]3(C)C(=CC[C@@H]4[C@@]5(C)CC[C@H](O[C@@H]6O[C@H](C(=O)O)[C@@H](O[C@@H]7O[C@H](CO)[C@@H](O)[C@H](O)[C@H]7O)[C@H](O)[C@H]6O[C@@H]6O[C@H](CO)[C@@H](O)[C@H](O)[C@H]6O)[C@](C)(CO)[C@@H]5CC[C@]43C)[C@@H]2CC1(C)C | 0
CN1c2ccccc2C(=O)N2CCc3c([nH]c4ccccc34)[C@H]21 | 3
O=C(O)[C@@H](O)[C@H](O)[C@H](O)[C@@H](O)C(=O)O | 10
O=c1c2ccccc2oc2ccccc12 | -19
COc1cc(O)c2c(=O)cc(-c3ccc(O)cc3)oc2c1 | 6

Study 4 — method: competition with immobilised ligand; concentration: 1 µM
SMILES: O=C(Nc1cnc(Oc2ccc(F)cc2)nc1)N1CCc2ncccc2[C@@H]1c1ccc(F)cc1
target | read-out | remaining binding [%]
Ephrin type-A receptor 4 (EPHA4, Homo sapiens, UniProt P54764) | cell-free assay | 88
Serine/threonine-protein kinase 17A (STK17A, Homo sapiens, UniProt Q9UEE5) | cell-free assay | 85
Tyrosine-protein kinase ABL1, phosphorylated (ABL1, Homo sapiens, UniProt P00519, H396P) | cell-free assay | 100
Serine/threonine-protein kinase ULK1 (ULK1, Homo sapiens, UniProt O75385) | cell-free assay | 88
Phosphatidylinositol 4,5-bisphosphate 3-kinase catalytic subunit alpha isoform (PIK3CA, Homo sapiens, UniProt P42336, I800L) | cell-free assay | 69
Cyclin-dependent kinase-like 3 (CDKL3, Homo sapiens, UniProt Q8IVW4) | cell-free assay | 77
Myosin light chain kinase (MYLK3, Homo sapiens, UniProt Q32MK0) | cell-free assay | 89
Activin receptor type-1-like (ACVRL1, Homo sapiens, UniProt P37023) | cell-free assay | 99
Serine/threonine-protein kinase MARK1 (MARK1, Homo sapiens, UniProt Q9P0L2) | cell-free assay | 71
Tyrosine-protein kinase ABL1, non-phosphorylated (ABL1, Homo sapiens, UniProt P00519, F317I) | binding | 99
Serine/threonine-protein kinase WNK1 (WNK1, Homo sapiens, UniProt Q9H4A3) | cell-free assay | 100
Eukaryotic translation initiation factor 2-alpha kinase 1 (EIF2AK1, Homo sapiens, UniProt Q9BQI3) | cell-free assay | 100
Cyclin-dependent kinase-like 2 (CDKL2, Homo sapiens, UniProt Q92772) | cell-free assay | 33
Tyrosine-protein kinase ZAP-70 (ZAP70, Homo sapiens, UniProt P43403) | cell-free assay | 93
Protein kinase C theta type (PRKCQ, Homo sapiens, UniProt Q04759) | cell-free assay | 94
Phosphatidylinositol 3-kinase C2 domain-containing subunit gamma (PIK3C2G, Homo sapiens, UniProt O75747) | cell-free assay | 97
NUAK family SNF1-like kinase 1 (NUAK1, Homo sapiens, UniProt O60285) | cell-free assay | 95
STE20-like serine/threonine-protein kinase (SLK, Homo sapiens, UniProt Q9H2G2) | cell-free assay | 82
Mast/stem cell growth factor receptor Kit, autoinhibited (KIT, Homo sapiens, UniProt P10721) | cell-free assay | 81
NT-3 growth factor receptor (NTRK3, Homo sapiens, UniProt Q16288) | cell-free assay | 75

A few entries again (study 2):
Compound | fluorescence polarization change [mP]
COC(=O)[C@@H]1[C@@H](c2ccccc2)[C@]2(c3ccc(OC)cc3)Oc3cc(OC)cc(OC)c3[C@@]23OC(c2ccc(OCc4ccccc4)cc2)=N[C@@]13O | 3.1
COc1ccc([C@@]23Oc4cc(OC)cc(OC)c4[C@]2(O)c2nc(C4CCCCC4)[nH]c(=O)c2[C@H]3c2ccccc2)cc1 | 42.2
COC(=O)[C@@H]1[C@@H](c2ccccc2)[C@]2(c3ccc(OC)cc3)Oc3cc(OC)cc(OC)c3[C@@]23NC(c2ccc(OC)cc2)=N[C@@]13O | 39
COC(=O)[C@H]1C(=O)[C@@]2(NCC3CCNCC3)c3c(OC)cc(OC)cc3O[C@@]2(c2ccc(OC)cc2)[C@@H]1c1ccccc1 | -2.2
COC(=O)[C@@H]1[C@@H](c2ccccc2)[C@]2(c3ccc(OC)cc3)Oc3cc(OC)cc(OC)c3[C@@]23OC(c2ccccc2Cl)=N[C@@]13O | -8.2
